Assay results from different studies.
Parts stem from different laboratories: compare values within a part only.

Study 1 — method: RNA Bind-n-Seq; molecule type: RNA; matrix: in vitro; concentration: 200 nM; notes: whole 134-nt RNA, ends assumed; together with: 150 mM KCl; reference: input library; direction: higher = stronger binding; measurement: log2 enrichment
Target: Fragile X messenger ribonucleoprotein 1, C-terminal low-complexity region (Fmr1, Mus musculus, UniProt P35922)
Shared flanks, not repeated: GGGAGUUCUACAGUCCGACGAUC … UGGAAUUCUCGGGUGUCAAGG
UGGCCGGUGGCCGUGAGAACACGCUGUGUGGCUGAAAAGUGAAGGCAAGAGCUGAUUUGGCCUCUGUGCUCCCCUCCGCAAGGGGAUCGU: -0.721
AAGUCCUGUGCUACACAUCGUAUGUACCGAAUCGGGGUUUUGGGUUUUGGUUUUGGAAAGUAUUAUGUUACGCCGUUCGGAUCUGCACUU: -0.379
UAACUUUAGAGGAGGAUCUGAUGGAUAUGGCAGUGGACGUGGAUUCGGGGAUGGCUAUAAUGGGUAUGGAGGAGGACCUGGAGGUGGCAA: 0.117
GCAGGAAGUAAAAACAAAUGGAAAUGCUUCGGAUAGUGGCAGGGGUGGGGGUUGCUAAGGAAAGGGUGGGAUGGGAGUGGAAAAAGAGUU: 0.291
UCCUCAAGUCCUGUGCUACACAUCGUAUGUACCGAAUCGGUUUGGAGGUGGAAAGUAUUAUGUUACGCCGUUCGGAUCUGCACUUCCAGC: -0.591
CAAGUCCUGUGCUACACAUCGUAUGUACCGAAUCGUGUGUGUGUGUGUGUGUGUGAAAGUAUUAUGUUACGCCGUUCGGAUCUGCACUUC: 0.474
UCCUGUGCUACACAUCGUAUGUACCGAAUCGGGUUUUUUUGGUUUUUUUGGUUUUUUUGGAAAGUAUUAUGUUACGCCGUUCGGAUCUGC: -0.0811
AGUCCUGUGCUACACAUCGUAUGUACCGAAUCGGUUUUUUUGGUUUGGAAAAAAAGGAAAGUAUUAUGUUACGCCGUUCGGAUCUGCACU: -1.18
UCAAGUCCUGUGCUACACAUCGUAUGUACCGAAUCGGGAAAGGAAAGGAAAGGGGAAAGUAUUAUGUUACGCCGUUCGGAUCUGCACUUC: -0.438

Study 2 — method: protein-binding microarray; molecule type: double-stranded DNA, one strand shown; matrix: in vitro; concentration: 250 nM; notes: 60-bp whole probe; together with: salmon DNA 0.4 mg/ml; reference: random background probes; direction: higher = stronger binding; measurement: log fluorescence; shared flanks, not repeated: GCCTAGCAC … GTCTTGATTCGCTTGACGCTGCTG
Target: Interferon regulatory factor 5, full length, phosphomimetic (IRF5, Homo sapiens, UniProt Q13568-2, residues 1-514, K96S/S451D/S453D/S456D/S462D)
TTAGGTTTCGACACCGGGTTAGTGCTA: 5.78 z-score
CTCGTTTACATTTTCCAAATGTGCTAG: 0.671 z-score
TAAGGTATCGACACTGGGTTAGTGCTA: 1.28 z-score
GACGAACTGATTTTCGAGACGTGCTAG: 1.46 z-score
TTAGATCTCAGTTTCTATTAGTGCTAG: 3.45 z-score
GACCAACTGGGGACTGGAGACGTGCTA: -0.717 z-score
TCAGTTTCACTTTCCAAACTGTGCTAG: 9.72 z-score
TTAGATATCGGGACTGTATTAGTGCTA: 1.28 z-score
TCAGCTATCACTATTCTACTGTGCTAG: 2.25 z-score
GTCTTTGCAAAAGCTCCACCGTGCTAG: -0.293 z-score
TTCGATTTCAGACTGGATTAGTGCTAG: 0.945 z-score
GACGATTTCAGGCTCGAGACGTGCTAG: 0.232 z-score
TTGTATCTGGGTTCCCCCCCGTGCTAG: 0.679 z-score
TTAGGAATGGGTCTCGGTTAGTGCTAG: 0.0851 z-score
GACGAATCCAGTTTCGAGACGTGCTAG: 5.8 z-score
GTCGGTTTCGACTTTCGGGACGTGCTA: 8.78 z-score
TCAGGTCTCGCTATGTTACTGTGCTAG: 0.0944 z-score
TTAGGACTGGGTCTTGGTTAGTGCTAG: -0.381 z-score
GACGGACTGGACTCTCGGGACGTGCTA: -0.543 z-score

Study 3 — method: RNA Bind-n-Seq; molecule type: RNA; matrix: in vitro; concentration: 365 nM; reference: no-protein control; direction: higher = stronger binding; measurement: RBNS enrichment (R)
Target: RNA binding protein fox-1 homolog 2, RRM domain, GST-SBP tag (RBFOX2, Homo sapiens, UniProt O43251-10, residues 100-194)
Notes: natural RNA segment, single round, ends assumed
Shared flanks, not repeated: GGGAGUUCUACAGUCCGACGAUC … UGGAAUUCUCGGGUGCCAA
Target sequence (chain): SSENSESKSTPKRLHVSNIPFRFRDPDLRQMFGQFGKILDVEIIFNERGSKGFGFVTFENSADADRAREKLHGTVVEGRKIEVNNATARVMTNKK
UGCUGGGUUGAACAGAGUCCCUUAUGCUUUUUGUCCUCUCCCUGCGCCUGGGAGAGGUGGGAGUAGGAGCCCAAACACACAGGUACAGAAAGAUCUGGAAGAAGGCCUGG: 0.329
GGCGCCUUAGAGAUGGGCGAGUGUCUGAGAAGACCUGCUCGGAGCACACUGCACUCUUUGAUCCUCCCUGGUGUCUGGUGCCUUCUAUCUUAAAAAACAUGACAAGUCAU: 0.391
UAAGGGGAGUAUCUCUCACGACCCUAAAUUCUGCCUCCAGCUGUGCCCAGUGAAAGACCUCAAGUCUGCCUCCAGCCAUGCCCAAGGCAGGAACCCUGGAAGAGAAGCGC: 0.248
CCAUCUCAGUGUCAGACCAGCCUUCUCCUCAGCUGACCACCCUCCUCUGACCCACGCCCCCUCCUUGUCUGAAAGAAAGGAGCCUUGAAUGGUGGAGGGAGGCAGUGGGG: 0.466
UGAGAAACCUGUAUCUUUCUAUGCUGCUUUUAUAUCUGUAUGUAUUAGUGAUAUUUCUCUAGUAGUUAAAAAAAAAAAAAAAGAAAAAAAAAACUUUUUUGGUUGUCCUC: 1.33
CCCCUUGCUUCCAGGGAAGAUGAAGAGAGAGAGAUUUGGAAGGGGCUCUGGCUCCCUAACACCUGAAUCCCAGAUGAUGGGAAGUAUGUUUUCAAGUGUGGGGAGGAUAU: 7.21
GCUCCCAGUUUUCCAGUUUGAGGUUCGUAGAACAAUGUCAAGUGGCAAAAUGAAGUUGGUGGACUCCGCCUUAAUGAGAAAGGCUUAGAGCAGUUAUGAGGUGCUGUUAU: 0.921
CAGCUUCCUGGCUGGUACCCAUGAUAACAAUUGAGCUGAACCUGGGGACCCCUGGUUGGGGAACAGGUGAGUUCUAUUUGAGACUUCCAGCCCUAGAAAGCUGCCUCCGU: 0.355

Study 4 — method: RNA Bind-n-Seq; molecule type: RNA; matrix: in vitro; concentration: not given; reference: input RNA pool; direction: higher = stronger binding; measurement: bound/input enrichment
Target: RING finger protein unkempt homolog, zinc fingers 1-6, GST-SBP tag (UNK, Homo sapiens, UniProt Q9C0B0, residues 30-357)
Sequence of UniProt Q9C0B0 (30-357, looked up): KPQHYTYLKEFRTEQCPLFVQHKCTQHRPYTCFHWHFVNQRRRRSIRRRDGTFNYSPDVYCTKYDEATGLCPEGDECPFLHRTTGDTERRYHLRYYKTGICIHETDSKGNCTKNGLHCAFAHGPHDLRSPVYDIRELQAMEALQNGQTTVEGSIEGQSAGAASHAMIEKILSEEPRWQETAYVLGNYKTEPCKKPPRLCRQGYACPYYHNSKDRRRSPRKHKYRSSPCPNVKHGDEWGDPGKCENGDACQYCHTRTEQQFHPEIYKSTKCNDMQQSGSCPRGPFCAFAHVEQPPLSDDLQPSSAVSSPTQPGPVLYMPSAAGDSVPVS
Notes: RNA with constant flanks, human and mouse sites, ends assumed
Shared flanks, not repeated: GGGAGUUCUACAGUCCGACGAUC … CAACAGAGGAUUGAGCAUCA
CCCUCGGCCCCCUCCCCCUCUAAGAUAAAUAAGAAAAUACUCAAAGCGAAAACCAAACUGCAUAAGCUUAACCCGCUGAUGAGUGGUUUUAUUUUGAAACUCGUUUUUUGGGUCCAGUCA: 0.563 ratio
GAUCCUGAAUUUGCUGAAGAUCCAAGAAUGAUUAAAGUUGAUCUUAUCACUCUUUCUUACACUUUUUUUGAAGCAAAGGAAGGGCACAAGUUGCCAGUUCCAGGAUAUAAUUGAAGUCAG: 0.114 ratio
GAGCUCAUUUGCAAGAUGGCUGCCUGCCCUGAGAAACUGGACCUGAACCUGGCAGCAGCUGUACAUAAGGAGAUGUUCAUUAUGGUGCAAGAGGAGCGGCGUCUACGAAAGGCUCUGUUG: 0.121 ratio
AAAAGUGCUGAGGAUGCUAAAGCUAUUUAUGACUUUACAGAUACUGUGAUACGGAUCAGAAACCGACACAAUGAUGUCAUUCCCACAAUGGCCCAGGGUGUGAUUGAAUACAAGGAGAGC: 0.133 ratio
CUUUCUGGAUUAGACUCAGUAGCUUCUUUCAGUUGAAAAUGAGGAGUGGCUUCAUCCCAUUUAUCUUUUCUUUUUUUUUUUUUUAAGAUUUAUUUAUUAUAUGUAAGUGUAGCUGUCUUC: 18 ratio
AGUUUUAAGCAGACAUGGAUGAAUAAUAUGAUGAAGACUUCUGAAGCCAAAAUUAAACAUUUUGAUGGUGAAGAUUACACAUGCAUAACAUUCCAACCAGAUCUGUCCAAAUUUAAGAUG: 0.155 ratio
GCAUGGCUUGGGAAACGUCUGAGUGCUGAAAACCCACCCAGCUUUGUUCUUCAGUCACAACCUGCAGCCUGUCGUUAAUUAUGGUCUCUGCAAGUAGAUUUCAGCCUGGAUGGUGGGGGG: 0.104 ratio
GGUCUCUCCAAACUGACUAUAUAUUUAUUUGUUAUUUUAAAAAUACAACUAUAUUUUGGGUAGUUUUUUUUUUUUUUUUUUUGAUAAGUUGGUGUAAGGCUAUGUGACUUGAUCAAAACA: 1.32 ratio

A few entries again (study 2):
TTGTATCTGGGTTCCCCCCCGTGCTAG: 0.679 z-score
TTAGGAATGGGTCTCGGTTAGTGCTAG: 0.0851 z-score
GACGGACTGGACTCTCGGGACGTGCTA: -0.543 z-score
TTAGATCTCAGTTTCTATTAGTGCTAG: 3.45 z-score
TTAGGTTTCGACACCGGGTTAGTGCTA: 5.78 z-score
TTAGGACTGGGTCTTGGTTAGTGCTAG: -0.381 z-score
TCAGTTTCACTTTCCAAACTGTGCTAG: 9.72 z-score
